Published values collected from several papers.
Compare with care: the assays were run in different laboratories. ± marks the error that the study gave. In brackets after ≈: the same amount, converted by molar mass.
Organism: Pseudomonas aeruginosa

Molecule	assay	system	setting	scale	endpoint	value
CC[C@H](C)CCCCC(=O)N[C@@H](CCN)C(=O)N[C@H](C(=O)N[C@@H](CCN)C(=O)N[C@H]1CCNC(=O)[C@H]([C@@H](C)O)NC(=O)[C@H](CCN)NC(=O)[C@H](CCN)NC(=O)[C@H](CC(C)C)NC(=O)[C@@H](Cc2ccccc2)NC(=O)[C@H](CCN)NC1=O)[C@@H](C)O	–	carbapenem-resistant, human	inhaled plus intravenous, 25 mg inhaled plus 100 mg intravenous every 12 h, 5 d, together with: meropenem and piperacillin/tazobactam	–	microbiological response at end of treatment	negative
CC[C@H](C)[C@H](NC(=O)[C@H](C)NC(=O)[C@@H](NC(=O)[C@H](C)NC(=O)CN)[C@@H](C)O)C(=O)N[C@@H](CCCCN)C(=O)N[C@@H](CCC(N)=O)C(=O)N[C@H](C(=O)N[C@@H](CCCCN)C(=O)N[C@@H](CCCCN)C(=O)N[C@@H](CC(C)C)C(=O)N[C@@H](Cc1ccccc1)C(=O)N[C@@H](CCCCN)C(=O)N[C@@H](CCCCN)C(=O)N[C@@H](CCCCN)C(=O)NCC(=O)NCC(N)=O)C(C)C	broth microdilution	ATCC 9027	24 h, 37 °C	–	MIC50	155 µM
CC[C@H](C)[C@H](N)C(=O)N[C@@H](CC(C)C)C(=O)N1CCC[C@H]1C(=O)N[C@@H](Cc1c[nH]c2ccccc12)C(=O)N[C@@H](CCCCN)C(=O)N[C@@H](Cc1c[nH]c2ccccc12)C(=O)N1CCC[C@H]1C(=O)N[C@@H](Cc1c[nH]c2ccccc12)C(=O)N[C@@H](Cc1c[nH]c2ccccc12)C(=O)N1CCC[C@H]1C(=O)N[C@@H](Cc1c[nH]c2ccccc12)C(=O)N[C@@H](CCCNC(=N)N)C(=O)N[C@@H](CCCNC(=N)N)C(N)=O	broth microdilution	–	18 h, 10 clinical isolates	–	MIC90	64 µg/mL (≈ 33.6 µM)
CC(C)C[C@H](NC(=O)[C@H](C)NC(=O)[C@H](CC(C)C)NC(=O)[C@H](CCCCN)NC(=O)[C@H](CC(C)C)NC(=O)[C@H](CCCCN)NC(=O)[C@@H](N)CCCCN)C(=O)N[C@@H](C)C(=O)N[C@@H](CCCCN)C(=O)N[C@@H](CC(C)C)C(=O)N[C@@H](C)C(=O)N1CCC[C@H]1C(=O)N[C@@H](CC(C)C)C(=O)N[C@@H](Cc1c[nH]c2ccccc12)C(=O)N[C@@H](CCCCN)C(=O)N[C@@H](C)C(=O)N[C@@H](CC(C)C)C(=O)N[C@@H](C)C(=O)N[C@@H](CC(C)C)C(=O)N[C@@H](CCCCN)C(=O)N[C@@H](CC(C)C)C(=O)N[C@@H](CCCCN)C(=O)N[C@@H](CCCCN)C(=O)N[C@@H](C)C(N)=O	broth microdilution	PAO1	overnight, 37 °C	–	MIC50	1.69 ± 0.09 µM
CC[C@H](C)CCCCC(=O)N[C@@H](CCN)C(=O)N[C@H](C(=O)N[C@@H](CCN)C(=O)N[C@H]1CCNC(=O)[C@H]([C@@H](C)O)NC(=O)[C@H](CCN)NC(=O)[C@H](CCN)NC(=O)[C@H](CC(C)C)NC(=O)[C@@H](CC(C)C)NC(=O)[C@H](CCN)NC1=O)[C@@H](C)O	–	PAO1 vacJ mutant, cation-adjusted Mueller-Hinton broth	–	relative to: vacJ mutant over wild type	MIC decrease	2 fold
CC[C@H](C)[C@H](NC(=O)[C@H](CCCNC(=N)N)NC(=O)[C@H](Cc1c[nH]c2ccccc12)NC(=O)[C@H](CCCNC(=N)N)NC(=O)[C@@H](N)CCCCN)C(=O)N[C@@H](CCCNC(=N)N)C(=O)N[C@H](C(=O)N[C@@H](CCCNC(=N)N)C(=O)N[C@H](C(=O)N[C@H](C(=O)N[C@@H](CCCNC(=N)N)C(=O)N[C@@H](CCCCN)C(=O)N[C@@H](CS)C(=O)O)[C@@H](C)CC)C(C)C)C(C)C	–	ATCC 27853	90, 300, 500 µM, 24 h, biofilm	–	MBEC	300 µM
CC[C@H](C)[C@H](NC(=O)[C@H](C)NC(=O)[C@@H](NC(=O)[C@H](C)NC(=O)CNC(=O)[C@H](CCSC)NC(=O)[C@H](CCC(N)=O)NC(=O)[C@H](CC(C)C)NC(=O)[C@H](CO)NC(=O)[C@@H](N)Cc1ccc(O)cc1)[C@@H](C)O)C(=O)N[C@@H](CCCCN)C(=O)N[C@@H](CCC(N)=O)C(=O)N[C@H](C(=O)N[C@@H](CCCCN)C(=O)N[C@@H](CCCCN)C(=O)N[C@@H](CC(C)C)C(=O)N[C@@H](Cc1ccccc1)C(=O)N[C@@H](CCCCN)C(=O)N[C@@H](CCCCN)C(=O)N[C@@H](CCCCN)C(=O)NCC(=O)NCC(N)=O)C(C)C	broth microdilution	ATCC 9027	24 h, 37 °C	–	MIC50	155 µM
C[C@@H](O)[C@H]1C(=O)N2C(C(=O)O)=C(S[C@@H]3CN[C@H](C(=O)N(C)C)C3)[C@H](C)[C@H]12	–	drug-resistant	32 µg/mL, together with: TS-CATH 16 µg/mL	–	time to complete kill	8 h
CC(C)C[C@H](NC(=O)[C@H](C)NC(=O)[C@H](CCCCN)NC(=O)[C@H](C)NC(=O)[C@H](CC(C)C)NC(=O)[C@H](CCCCN)NC(=O)[C@H](CC(C)C)NC(=O)[C@H](Cc1c[nH]c2ccccc12)NC(=O)[C@H](CC(C)C)NC(=O)[C@H](CC(C)C)NC(=O)[C@H](C)NC(=O)[C@H](CC(C)C)NC(=O)[C@H](CC(C)C)NC(=O)[C@H](CCCCN)NC(=O)[C@@H]1CCCN1C(=O)[C@H](C)NC(=O)[C@H](CCCCN)NC(=O)[C@H](C)NC(=O)[C@H](CC(C)C)NC(=O)[C@H](CCCCN)NC(=O)[C@@H](N)CCCCN)C(=O)N[C@@H](CCCCN)C(=O)N[C@@H](CCCCN)C(=O)N[C@@H](C)C(N)=O	broth microdilution	PAO1	overnight, 37 °C	–	MIC50	2.13 ± 0.77 µM
CC[C@H](C)[C@H](NC(=O)[C@H](C)NC(=O)[C@@H](NC(=O)[C@H](C)NC(=O)CNC(C)=O)[C@@H](C)O)C(=O)N[C@@H](CCCCN)C(=O)N[C@@H](CCC(N)=O)C(=O)N[C@H](C(=O)N[C@@H](CCCCN)C(=O)N[C@@H](CCCCN)C(=O)N[C@@H](CC(C)C)C(=O)N[C@@H](Cc1ccccc1)C(=O)N[C@@H](CCCCN)C(=O)N[C@@H](CCCCN)C(=O)N[C@@H](CCCCN)C(=O)NCC(=O)NCC(N)=O)C(C)C	broth microdilution	ATCC 9027	24 h, 37 °C	–	MIC50	155 µM
CC(C)C[C@H](NC(=O)[C@H](C)NC(=O)[C@H](CCCCN)NC(=O)[C@H](C)NC(=O)[C@H](CC(C)C)NC(=O)[C@H](CCCCN)NC(=O)[C@H](CC(C)C)NC(=O)[C@H](Cc1c[nH]c2ccccc12)NC(=O)[C@H](CC(C)C)NC(=O)[C@H](CC(C)C)NC(=O)[C@H](C)NC(=O)[C@@H]1CCCN1C(=O)[C@H](CC(C)C)NC(=O)[C@H](CCCCN)NC(=O)[C@H](CC(C)C)NC(=O)[C@H](C)NC(=O)[C@H](CCCCN)NC(=O)[C@H](C)NC(=O)[C@H](CC(C)C)NC(=O)[C@H](CCCCN)NC(=O)[C@@H](N)CCCCN)C(=O)N[C@@H](CCCCN)C(=O)N[C@@H](CCCCN)C(=O)N[C@@H](C)C(N)=O	broth microdilution	PAO1	overnight, 37 °C	–	MIC50	1.18 ± 0.53 µM
GIGKWLHSAKKFGKAFVGEIMNS-NH2 (C-amide)	bacterial growth, broth microdilution	peptide, PAO1, Mueller-Hinton broth	overnight, 37 °C	–	MIC50	7.29 ± 2.73 µg/mL

For quick reference, copied from above:
Molecule	assay	system	setting	scale	endpoint	value
CC(C)C[C@H](NC(=O)[C@H](C)NC(=O)[C@H](CCCCN)NC(=O)[C@H](C)NC(=O)[C@H](CC(C)C)NC(=O)[C@H](CCCCN)NC(=O)[C@H](CC(C)C)NC(=O)[C@H](Cc1c[nH]c2ccccc12)NC(=O)[C@H](CC(C)C)NC(=O)[C@H](CC(C)C)NC(=O)[C@H](C)NC(=O)[C@@H]1CCCN1C(=O)[C@H](CC(C)C)NC(=O)[C@H](CCCCN)NC(=O)[C@H](CC(C)C)NC(=O)[C@H](C)NC(=O)[C@H](CCCCN)NC(=O)[C@H](C)NC(=O)[C@H](CC(C)C)NC(=O)[C@H](CCCCN)NC(=O)[C@@H](N)CCCCN)C(=O)N[C@@H](CCCCN)C(=O)N[C@@H](CCCCN)C(=O)N[C@@H](C)C(N)=O	broth microdilution	PAO1	overnight, 37 °C	–	MIC50	1.18 ± 0.53 µM
CC[C@H](C)[C@H](NC(=O)[C@H](C)NC(=O)[C@@H](NC(=O)[C@H](C)NC(=O)CN)[C@@H](C)O)C(=O)N[C@@H](CCCCN)C(=O)N[C@@H](CCC(N)=O)C(=O)N[C@H](C(=O)N[C@@H](CCCCN)C(=O)N[C@@H](CCCCN)C(=O)N[C@@H](CC(C)C)C(=O)N[C@@H](Cc1ccccc1)C(=O)N[C@@H](CCCCN)C(=O)N[C@@H](CCCCN)C(=O)N[C@@H](CCCCN)C(=O)NCC(=O)NCC(N)=O)C(C)C	broth microdilution	ATCC 9027	24 h, 37 °C	–	MIC50	155 µM
